Published values pooled from the literature.
Every numbered part comes from another study and shows a few of its results, in no order. Changes are numbered by the printed parent chain.

Study 1 — method: RNA Bind-n-Seq; form: RNA; matrix: in vitro; concentration: not given; baseline: input RNA pool; reading: higher = stronger binding
Target: RING finger protein unkempt homolog, zinc fingers 1-6, GST-SBP tag (UNK, Homo sapiens, UniProt Q9C0B0, residues 30-357)
Chain of UniProt Q9C0B0 (30-357, looked up): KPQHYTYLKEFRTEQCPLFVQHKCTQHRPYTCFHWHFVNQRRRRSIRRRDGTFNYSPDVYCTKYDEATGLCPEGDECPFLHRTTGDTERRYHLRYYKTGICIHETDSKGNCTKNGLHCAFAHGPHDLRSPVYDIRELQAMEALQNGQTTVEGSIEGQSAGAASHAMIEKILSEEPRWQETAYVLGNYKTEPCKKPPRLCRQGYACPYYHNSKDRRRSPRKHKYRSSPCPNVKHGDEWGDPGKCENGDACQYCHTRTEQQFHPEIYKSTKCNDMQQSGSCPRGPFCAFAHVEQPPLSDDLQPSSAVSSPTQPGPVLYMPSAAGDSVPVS
Setting: RNA with constant flanks, human and mouse sites, ends assumed
Constant ends, left off below: GGGAGUUCUACAGUCCGACGAUC … CAACAGAGGAUUGAGCAUCA
Sequence	bound/input enrichment [ratio]
GGCCCCUGCCGGGCGCGCAGUGGCACCAUGGGCACGGUGCUGUCCCUAUCCCCCAGCUAUCGGAAGGCCACACUGUUUGAGGAUGGCGCGGCCACCGUGGGCCACUACACGGCCGUGCAG	0.129
GGGAUGUCGCUGCUGGUUCGGGCAGAGUCCGACGGAUCACUACUCUUGGAAUCAAAGAUAAAUCCAAAUACUGCAUAUCAGAAACAACAGGAUACAUUAAUUGUUUGGUCAGAAGCAGAG	0.16
ACCACAGUUAUCCAAAAUGUAAAUAAAGCCCAAGUGAAGAUCAGAGCAAAGAAAGACAAUGUAGCAGGUGUUACCUUGCCAGUGUUUGAACAUUACCACGAAGGAACUGACAGCUAUGAA	0.204
CACUAAAUGGCAGGCACUUGAAAAUGGGUGGAUUUCCCUUGUCGUUGUCUUUUCUAUUGAUAGUUGGGAUUUGGGAGAGAAGAAAGAGGUUUUCGAAACUGAAUCACUACUGAGUUGAAC	0.195
GCCUUAGCUGCAUCUUGGACCUCAAGACAAGUAGGAGAACGGACGUUGACCGGUACGGUAAUAGACAGUGGAGAUGGUGUCACUCAUGUCAUUCCUGUGGCUGAAGGGUAUGUGAUUGGC	0.346
UGUGCAUUAUUAAAAUGUUCUAAGUGAAGCUAAUUGUCAAGUUUAUUAAAGAGGAUUGCUUUGUGCCCCCUACCUAGUGUGUAAAAUAAAGUCAGAUCAUUACAAUCUUAACUGUGGUAC	4.79
UUUCCAUCUCAUGGAGACAGAGAAGAAAGUAUGAGAGAAGCUCUGUCUCCCGAUACCAGCGUUUCUGUCUUUACCUGGCAAGUGAAUAUAUAUGGACAGGGAAAGCCUUCUGUGUAUUUA	0.25
GUCCCCACAAAAGCCAGGUUCCCUGCAUUUGAACUCUGAAAGGAUAGCAUGCCACCUGCAACUCACUGCAUGACCCUUUCUGUAUAUUCAAACCCAAGCUAAGUGCUUCCGUUGCUUUCC	0.322
GUUCACCAGAUUGAUGCAGUGCUGUUGUCUCACCCUGAUCCUCUCCACCUUGGUGCCCUCCCGUAUGCUGUCGGAAAGUUGGGUCUGAACUGUGCUAUCUAUGCAACCAUUCCUGUUUAU	0.226
UUGACAUUACAGCCAAAAUGGUGCUGUCCCAGAGACAACGAGAUGAACUAAAUCGAGCUAUAGCAGAUUAUCUUCGUUCAAAUGGCUAUGAAGAGGCAUAUUCCGUUUUUAAAAAGGAAG	0.225
UUGACUUUCUUUGUCAAUACCACAAACCAGCAAGCAAAAUUCCUGCCUUUCUAAAUGUGGUGGAUAUUGCUGGCCUUGUGAAAGGAGCUCACAAUGGGCAGGGCCUGGGGAAUGCUUUUU	0.243

Study 2 — target: CCNB1, cyclin fold, Cln2 fusion (human); method: yeast growth competition, sequencing; matrix: yeast; setting: strong parent motif; baseline: not given; reading: higher = stronger binding
Parent: DBF4 docking peptide (human); DDIVSKLVFDFVE
Change	normalised enrichment score
DDIVSKLVFDFVA [E13A]	0.712
DDIVSKLVFDFAE [V12A]	1.39
DDIVAKLVFDFVE [S5A]	1.52
DDIVSALVFDFVE [K6A]	0.285
DAIVSKLVFDFVE [D2A]	1.58
DDAVSKLVFDFVE [I3A]	0.903

Study 3 — method: protein-binding microarray; form: double-stranded DNA, one strand shown; matrix: in vitro; concentration: 2540 nM top; setting: 60-bp whole probe; added: salmon DNA 0.4 mg/ml; baseline: random background probes; reading: higher = stronger binding; constant ends, left off below: GCCTAGCAC … GTCTTGATTCGCTTGACGCTGCTG
Target: Interferon regulatory factor 3, full length, phosphomimetic (IRF3, Homo sapiens, UniProt Q14653, residues 1-427, S386D/S396D/S398D/S402D/T404D/S405D)
Target sequence (chain): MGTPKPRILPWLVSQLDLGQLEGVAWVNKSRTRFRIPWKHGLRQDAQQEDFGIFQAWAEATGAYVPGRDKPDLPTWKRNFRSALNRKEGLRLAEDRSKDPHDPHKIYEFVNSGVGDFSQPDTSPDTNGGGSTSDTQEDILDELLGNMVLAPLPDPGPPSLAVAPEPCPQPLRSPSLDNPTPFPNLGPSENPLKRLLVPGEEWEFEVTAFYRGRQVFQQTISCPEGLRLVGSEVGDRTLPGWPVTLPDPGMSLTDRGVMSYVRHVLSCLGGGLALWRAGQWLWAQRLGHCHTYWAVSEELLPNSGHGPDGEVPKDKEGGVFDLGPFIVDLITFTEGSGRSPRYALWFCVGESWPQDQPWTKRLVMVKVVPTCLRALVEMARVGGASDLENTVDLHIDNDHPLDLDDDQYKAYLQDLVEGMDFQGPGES
Sequence	fitted relative affinity
CTGCTGCAGGCAGCACGCTGGTGCTAG	-0.539 z-score
CTCCCTCTGTAAGTCAGCACGTGCTAG	0.264 z-score
GACGGACTGGGGTTTTGGGACGTGCTA	-0.79 z-score
TTAGGTTTCAGTATCGGTTAGTGCTAG	5.69 z-score
TTTGGTTTCGGTCTCGGTTAGTGCTAG	9.22 z-score
ATAGGTTTCTATATTTGCTTGTGCTAG	2.53 z-score
TTAGAACTGAGTCTCAATTAGTGCTAG	-0.304 z-score
CCAGGGACAAAGCGGTGCGAGTGCTAG	-0.892 z-score
GACGGACTGGGGTTTCGGGACGTGCTA	0.654 z-score
TACGGTTCCCTTTTCCTGACGTGCTAG	6.24 z-score
TTAGAATTCGGGACTGGATTAGTGCTA	-0.104 z-score
TACGGACTGGGTATCGGGACGTGCTAG	-0.304 z-score

Other studies, line by line
Molecule	target	test	test system	setting	how to read	endpoint	value
PhoQ, residues 284 288 289 292 302 303 AMDMFI	PhoP, residues 12 14 15 18 19 HEGLL (Escherichia coli, UniProt P23836)	Sort-seq, refers to: YFP reporter	E. coli	PhoQ-PhoP variant library, added: 10 µM Mg2+	baseline: high Mg2+ state, higher = stronger signaling	fold induction	2.8
